Experimental data collected from several papers.
Protocols differ between the studies behind these lines. ± gives the spread as reported.

Structure (SMILES)	test system	conditions	how to read	Cmax
O=C(CCCCCCC(=O)Nc1ccccc1)NO	patients, serum	oral, 400 mg, cycle 1 day 2, with: flavopiridol 30+30 mg/m2	–	2110 nM
CC(C)[C@H](N)C(=O)NCCCS(=O)(=O)O	human, both sexes, plasma	oral, 100 mg capsule	–	3650 ± 1440 ng/mL
Cn1c(C(F)(F)F)cc(=O)n(-c2cc(Oc3cccnc3OCC(=O)O)c(Cl)cc2F)c1=O	beagle dog, female, plasma	oral capsule, 100 mg/kg/day epyrifenacil, week 13, 90-day study	–	1920 ng/mL
COc1cccc(-c2n[nH]c(SCc3ccccn3)n2)c1OC	Sprague-Dawley rat, both sexes, plasma	oral, diet, 10 mg/kg/day, day 7	–	276 ng/mL
CCCC[C@H](NC(C)=O)C(=O)N[C@H]1CCC(=O)NC[C@@H](C(=O)N[C@@H](Cc2c[nH]c3ccccc23)C(N)=O)NC(=O)[C@H](CCCNC(=N)N)NC(=O)[C@@H](Cc2ccccc2)NC(=O)[C@H](Cc2c[nH]cn2)NC1=O	beagle dog, female, plasma	subcutaneous, 1.5 mg/kg daily, day 1	–	106 ng/mL
CCCOc1ccc([C@H]2CNC(=O)N2c2ccc3[nH]cnc3c2)cc1	human, plasma	oral, 800 mg, multiple doses, twice daily, fasted	–	6450 ng/mL
O=C1N=C(N2CCOCC2)CN1c1ccc(Cl)cc1	beagle dog, both sexes, plasma	oral, 30 mg/kg, tablets, fasted, day 5	–	14900 ng/mL
C#C[C@]1(CO)O[C@@H](n2cnc3c(N)nc(F)nc32)C[C@@H]1O	human, plasma	oral, 5 mg, single dose, fasted	–	147 nM
CC1=C2C[C@H]3[C@@H](CC[C@@H]4C[C@H](NS(C)(=O)=O)CC[C@@]43C)[C@@H]2CC[C@@]2(C1)O[C@@H]1C[C@H](C)CN[C@H]1[C@H]2C	patients, plasma	oral, 130 mg single, day -7, cycle 1	–	59.9 ng/mL
CN1CCN(CCOc2cc(OC3CCOCC3)c3c(Nc4c(Cl)ccc5c4OCO5)ncnc3c2)CC1	beagle dog, both sexes	oral, 5 mg/kg/day, week 39, repeated daily dosing	–	389 ng/mL
CS(=O)(=O)Nc1ccc(C(=O)O[C@@H](Cc2c(Cl)c[n+]([O-])cc2Cl)c2ccc(OC(F)F)c(OCC3CC3)c2)cc1OCC1CC1	human, plasma	inhaled, 1200 µg once daily, day 7, single-dose dry powder inhaler	–	1.69 ng/mL
Nc1ccc(-c2nc([C@H]3CCc4cc(-c5cc(Cl)ccc5-n5cnnn5)cc(=O)n43)c(F)[nH]2)c(F)n1	human, plasma	oral, 1 mg, single dose, fasted	–	6.77 ng/mL
Nc1ncc(-c2cnn(CCO)c2)c2scc(-c3ccc(NC(=O)Nc4cccc(F)c4)cc3)c12	human, plasma	oral, 10 mg, patients	–	37 ng/mL
O=c1[nH]c(=O)c(Cc2cccc(C(F)(F)F)c2)c([C@H]2CC[C@H](c3ccccc3)CC2)[nH]1	human, plasma	oral, 450 mg once daily, day 7, geometric mean	–	523 ng/mL
CNCc1ccc(-c2[nH]c3cc(F)cc4c3c2CCNC4=O)cc1	human, fed high-fat meal, plasma	oral, 600 mg, single dose, median	–	746 ng/mL
CN(C(=O)c1ccn2ncc(-c3ccc(C(N)=O)cc3)c2c1)c1ccc(C#N)cn1	female C57BL/6 mouse, plasma	oral, 10 mg/kg	–	659 nM
Cc1cc(Nc2cc3ncccc3c(N[C@@H]3C[C@H]4CC[C@@H](C3)N4CCC#N)n2)n[nH]1	beagle dog, male, plasma	oral, 100 mg/kg/day, week 28 day 197, 39-week repeat dose	mean	304 ng/mL
Cc1nc2cccc(OCC(C)(C)C(=O)NC(C)C)c2c(N)c1C(=O)O	male Sprague-Dawley rat, plasma	dietary, 60 mg/kg/day, day 90	–	146 ng/mL

Excerpt of the above:
Structure (SMILES)	test system	conditions	how to read	Cmax
CN(C(=O)c1ccn2ncc(-c3ccc(C(N)=O)cc3)c2c1)c1ccc(C#N)cn1	female C57BL/6 mouse, plasma	oral, 10 mg/kg	–	659 nM
Cc1nc2cccc(OCC(C)(C)C(=O)NC(C)C)c2c(N)c1C(=O)O	male Sprague-Dawley rat, plasma	dietary, 60 mg/kg/day, day 90	–	146 ng/mL
